# Measurements gathered from unrelated publications.
# Values joined by “and” are separate records of one study, mostly repeats; a detail may differ. ± marks the error that the study gave.
SMILES,tested on,test,system,conditions,scale,measurement,result
CC[C@H](C)[C@H](NC(=O)[C@H](Cc1ccccc1)NC(=O)[C@H](CCC(=O)O)NC(=O)[C@H](CCCCNC(=O)COCCOCCNC(=O)COCCOCCNC(=O)CC[C@H](NC(=O)CCCCCCCCCCCCCCCCC(=O)O)C(=O)O)NC(=O)[C@H](C)NC(=O)[C@H](C)NC(=O)[C@H](CCC(N)=O)NC(=O)CNC(=O)[C@H](CCC(=O)O)NC(=O)[C@H](CC(C)C)NC(=O)[C@H](Cc1ccc(O)cc1)NC(=O)[C@H](CO)NC(=O)[C@H](CO)NC(=O)[C@@H](NC(=O)[C@H](CC(=O)O)NC(=O)[C@H](CO)NC(=O)[C@@H](NC(=O)[C@H](Cc1ccccc1)NC(=O)[C@@H](NC(=O)CNC(=O)[C@H](CCC(=O)O)NC(=O)C(C)(C)NC(=O)[C@@H](N)Cc1cnc[nH]1)[C@@H](C)O)[C@@H](C)O)C(C)C)C(=O)N[C@@H](C)C(=O)N[C@@H](Cc1c[nH]c2ccccc12)C(=O)N[C@@H](CC(C)C)C(=O)N[C@H](C(=O)N[C@@H](CCCNC(=N)N)C(=O)NCC(=O)N[C@@H](CCCNC(=N)N)C(=O)NCC(=O)O)C(C)C,,12-lead Holter ECG,healthy humans,"subcutaneous, 1.5 mg once weekly, 27 h, steady state",baseline: placebo,QTcB change from baseline,9.2 ms
N#Cc1ccc2c(c1)[C@H]1CCCN(C(=O)c3ccc4[nH]cnc4c3)[C@H]1C2,,,human,"360 mg, day 15",,mean ACTH level,7.6 pmol/L
COC(=O)/N=S(\c1ccc(C(F)(F)F)cc1)C1CC1 (centres unmarked),,,human liver microsomes,,baseline: hepatic blood flow,metabolic stability,< 23%
CC(C)(C(=O)N1CCOc2c(C#N)cncc2C1)C(F)F,,refers to: Presyncope,human,"oral, 10 mg once daily, 14 days, multiple ascending dose",,subjects with adverse event,0%
CC(C)n1c(Nc2cccnc2)nc2cnc(Nc3ccc(N4CCN(C)CC4)cc3)nc21,,refers to: nodal rhythm,"healthy human, male","oral, dose not given, CTCAE grade 1-3",,subjects with TEAE,2.4%
O=C(O)c1cccc(C(=O)O)c1,,,betaine/ethylene glycol DES-water,DES mass fraction 0.50,,apparent dissolution enthalpy,2.77 kcal/mol
Cc1cc(Nc2ccc(S(F)(F)(F)(F)F)cc2)n2nc(C(C)(F)F)nc2n1,,,Plasmodium vivax malaria patients,"oral, 800 mg",,adverse event abdominal pain,0%
O=C1CC[C@H](N2Cc3cc(N4CCN(CC5CCN(c6ccc([C@@H]7c8ccc(O)cc8CC[C@@H]7c7ccccc7)cc6)CC5)CC4)ccc3C2=O)C(=O)N1,,,human,"oral, 200 mg, together with: dabigatran etexilate 75 mg",,participants with TEAE oropharyngeal pain,4.2%
CCC(C)n1ncn(-c2ccc(N3CCN(c4ccc(OCC5COC(Cn6cncn6)(c6ccc(Cl)cc6Cl)O5)cc4)CC3)cc2)c1=O (centres unmarked),,,healthy human volunteers,"oral, 200 mg, event Fatigue, continued dosing",,adverse events,0%
O=C(O)CCC(=O)O.[2H]C([2H])([2H])Oc1cc(C)c2[nH]ccc2c1CN1CC[C@@H](C2CC2)C[C@H]1c1ccc(C(=O)O)cc1,,multiple ascending dose,healthy Chinese subjects,100 mg twice daily,,subjects with TEAE Anemia,0%
COc1c(OCCCN2CCOCC2)ccc2c1N=C(NC(=O)c1cnc(N)nc1)N1CCN=C21,,,relapsed iNHL patients,"intravenous, 60 mg",,grade 3 or worse TEAEs,91%
CCN1CCN(Cc2ccc(NC(=O)c3ccc(C)c(NC(=O)c4cncc(-c5cccs5)c4)c3)cc2C(F)(F)F)CC1,,LC-MS/MS,"C57BL/6 mouse, plasma","intraperitoneal, 10 mg/kg single dose, 0.25 h",,plasma concentration,436 ng/mL and 444 ng/mL and 580 ng/mL
COc1cc2nccc(Oc3ccc(NC(=O)c4cc5c(n(-c6ccccc6)c4=O)CCCC5=O)nc3)c2cc1OC,,,relapsed or refractory AML,"oral, 6 mg once daily",,grade ≥3 Fatigue patients,0%
COc1ccc(CNc2nc(-c3ccc(C(=O)O)cc3)nc3c2c2ccccc2n3C)cc1Cl,,,NSG mice,"dose not given, day 6 of treatment",,body weight,21.4 g and 24.1 g and 23 g and 22.8 g
CO[C@@H]1[C@H](OC(=O)N2CC(CCN3CCOCC3)C2)CC[C@]2(CO2)[C@H]1[C@@]1(C)O[C@@H]1CC=C(C)C,,,humans,"subcutaneous, 0.2 mg twice weekly for 4 weeks, day 28",baseline: baseline,heart rate,-0.8 ± 5.3 beats/min
Cc1ccc([C@@H]2O[C@H](CO)[C@@H](O)[C@H](O)[C@H]2O)cc1Cc1ccc(-c2ccc(F)cc2)s1,,,Japanese type 2 diabetes patients,"100 mg, day 6, 24 h urine collection",baseline: baseline,urinary chloride excretion change,-29.8 mEq
COc1cc2c(cc1OC)C(=O)C(CC1CCN(Cc3ccccc3)CC1)C2 (centres unmarked),,,human subjects,unit not given,baseline: placebo,LSEQ quality of sleep,7.3
FC(F)(F)c1ccc(CNc2ccc(Cc3c[nH]c4ncc(Cl)cc34)cn2)cn1,,refers to: Anemia,"patients with advanced solid tumours, all cohorts","oral, 1000 mg/day, any grade",,treatment-related adverse events,12%
Cc1nc(-c2ccc(OCC(C)C)c(C#N)c2)sc1C(=O)O,,,healthy Chinese subjects,"oral, 40 mg single, fed",,participants with AEs grade 3 or above,0%
CC(C(=O)NCC(=O)NCC(CNC(=O)CNC(=O)C(C)N1CCN(CC(=O)[O-])CCN(CC(=O)[O-])CCN(CC(=O)[O-])CC1)(CNC(=O)CNC(=O)C(C)N1CCN(CC(=O)[O-])CCN(CC(=O)[O-])CCN(CC(=O)[O-])CC1)CNC(=O)CNC(=O)C(C)N1CCN(CC(=O)[O-])CCN(CC(=O)[O-])CCN(CC(=O)[O-])CC1)N1CCN(CC(=O)[O-])CCN(CC(=O)[O-])CCN(CC(=O)[O-])CC1.[Gd+3].[Gd+3].[Gd+3].[Gd+3] (centres unmarked),,ICP-MS,"female cynomolgus monkey, plasma","intravenous bolus, 0.1 mmol/kg, lanthanide mixture, geometric mean",,total plasma clearance,1.9 mL/min/kg
CNC(=O)c1cc(Cl)c(OC(C)(C)C(=O)O)cc1OC[C@@H](O)CN1CCC2(CC1)Cc1cc(Cl)ccc1O2,,equilibrium dialysis,"rat, plasma",,,fraction unbound,0.44
Cc1c(C(=O)O)ccc2c3n(nc12)[C@@H]1[C@H](C3)N(CC2CC2)[C@@]2(C(=O)Nc3cc(Cl)ccc32)[C@H]1c1cccc(Cl)c1F,,,"female BALB/c nude mice, SJSA-1 xenograft, plasma","oral, 1 mg/kg twice daily, 2 doses, mean",,Tmax,11 h
C[C@H]1Oc2cc(cnc2N)-c2c(nn(C)c2C#N)CN(C)C(=O)c2ccc(F)cc21,,population PK,"patients with mild renal impairment, plasma","oral, 100 mg, mean, single dose",,clearance,136 mL/min
C=CC(=O)Nc1cc(Nc2nccc(-c3cn(C)c4ccccc34)n2)c(OC)cc1N(C)CCN(C)C,,storage stability,human plasma,"72 h, -80 °C, LLOQ level",,recovery,95.7%
CC(=O)N(C)[C@H]1CCN(C(=O)c2cnc3c(c2)C[C@](C)(c2ccc(F)cc2)N3)C1,,,"healthy male subjects, multiple rising dose","oral, 30 mg once daily",,any adverse event,50%
NCCONC(=O)[C@@H]1CC[C@@H]2CN1C(=O)N2OS(=O)(=O)O,,,"human, male, urine","intravenous infusion, 2 g single dose",baseline: dose,cumulative urinary excretion (0-24 h),76.7%
O=C(Nc1nc2cccc(-c3ccc(CN4CCS(=O)(=O)CC4)cc3)n2n1)C1CC1,,population PK model,human,"oral, bootstrap median",,slower absorption mixture fraction,0.823
COc1ccnc(C(=O)N[C@H]2COC(=O)[C@H](Cc3ccccc3)[C@@H](O)[C@H](C)OC2=O)c1O,,aerobic dark soil incubation,silt loam soil,"20 °C, persistence endpoint",,DT50,14 days
CNCc1ccc(-c2[nH]c3cc(F)cc4c3c2CCNC4=O)cc1,,,patients,"oral, 480 mg twice daily, all grades",,any adverse event incidence,88.9%
CC(C)C[C@H](NC(=O)[C@H](CC(C)C)NC(=O)[C@H](Cc1c[nH]c2ccccc12)NC(=O)[C@H](CCC(=O)O)NC(=O)[C@@H](NC(=O)[C@H](Cc1ccccc1)NC(=O)[C@H](CCC(=O)O)NC(=O)[C@H](CCCCNC(=O)COCCOCCNC(=O)COCCOCCNC(=O)CC[C@H](NC(=O)CCCCCCCCCCCCCCCCCCC(=O)O)C(=O)O)NC(=O)[C@H](C)NC(=O)[C@H](CCCCN)NC(=O)[C@H](CCCCN)NC(=O)[C@H](CCC(=O)O)NC(=O)[C@H](CC(=O)O)NC(=O)[C@H](CC(C)C)NC(=O)[C@H](Cc1ccc(O)cc1)NC(=O)[C@H](CCCCN)NC(=O)[C@H](CO)NC(=O)[C@H](Cc1ccc(O)cc1)NC(=O)[C@H](CC(=O)O)NC(=O)[C@H](CO)NC(=O)[C@@H](NC(=O)[C@H](Cc1ccccc1)NC(=O)[C@@H](NC(=O)CNC(=O)[C@H](CCC(N)=O)NC(=O)C(C)(C)NC(=O)[C@@H](N)Cc1c[nH]cn1)[C@@H](C)O)[C@@H](C)O)C(C)C)C(=O)N[C@@H](CCC(=O)O)C(=O)NCC(=O)NCC(=O)N1CCC[C@H]1C(=O)N[C@@H](CO)C(=O)N[C@@H](CO)C(=O)NCC(N)=O,,,"human, plasma","subcutaneous, 16 mg weekly, week 20",,"tmax,ss",12 h
O=C(Nc1nc2cccc(-c3ccc(CN4CCS(=O)(=O)CC4)cc3)n2n1)C1CC1,,refers to: vomiting,rheumatoid arthritis patients,"oral, 30 mg once daily, 4 weeks, any relatedness",,treatment-emergent adverse events,0%
COc1ccc2[nH]c([S+]([O-])Cc3ncc(C)c(OC)c3C)nc2c1 (centres unmarked),,,"healthy Chinese volunteers CYP2C19 RM, plasma","oral, 20 mg single dose, fasted",,AUC(0-t),232 ng·h/mL
C[C@@H](N)C1CCN(S(=O)(=O)c2cccc3cnccc23)CC1,,,healthy volunteers,"150 mg single dose, fed",,discontinuations due to TEAEs,0%
CN1CCN(C(=O)[C@H](CCCN[C@@H]2C[C@H]2c2ccc(F)cc2)NC(=O)c2ccc(-n3ccnn3)cc2)CC1,,,"NOD/SCID mouse MV4-11 xenograft, subcutaneous tumour","oral, 15 mg/kg/day, 24 h",,tumour concentration,3.76 ± 0.43 µM
COc1ccc(C[C@@H](C)[C@@H](C)Cc2ccc(OC)c(OC)c2)cc1OC,,,"beagle dog female, plasma","oral, 1000 mg/kg/day, day 28",,AUC(0-t),15700 ± 4880 ng·h/mL
CCCCCCCOc1ccc(CCC(N)(CO)CO)cc1C(F)(F)F.Cl,,,healthy men,"oral, 0.5 mg, day 21",,renal clearance,0.143 mL/min
Cc1cccc(-c2ccc([C@@H]3[C@@H](CO)N4C(=O)CCCCN(S(=O)(=O)c5ccccc5C(F)(F)F)C[C@@H]34)cc2)c1C,"Insulin-degrading enzyme (IDE, Homo sapiens, UniProt P14735)","enzyme activity, inhibitor, fluorogenic peptide cleavage",,"partial inhibition curves, together with: Mca-RPPGFSAFK(Dnp)-OH",,EC50,100 nM
C/C=C/C[C@H](C)[C@@H](OC)[C@@H](C)[C@H](O)C[C@H]1OC(=O)C=C[C@H]1CC,,mass spectrometry,human liver microsomes,concentration not given,,number of metabolites,14
Cc1ccc(-c2cc(C(F)(F)F)nn2-c2ccc(S(N)(=O)=O)cc2)cc1,,,"rat, stomach","concentration not given, 4 h",baseline: indomethacin,ulcer number,50%
O=C(COc1ccc(Cl)cc1)NC12CC(c3nnc([C@H]4C[C@@H](OC(F)(F)F)C4)o3)(C1)C2,,abdominal discomfort,"human, both sexes","oral, dose not given, single ascending dose, fasted, all doses",baseline: subjects,treatment-emergent adverse events,5.6%
C=CCN1CC(=O)N2[C@@H](Cc3ccc(O)cc3F)C(=O)N(Cc3cccc(N4CC(N5CCN(CC)CC5)C4)n3)C[C@@H]2N1C(=O)NCc1ccccc1,,refers to: Diarrhea,advanced solid tumour patients,"oral, 100 mg twice daily, expansion part, any grade",,treatment-related adverse events,22.2%
Cc1cc(NC2CCN(C(=O)OC3CCN(C(=O)/C=C/CN(C)C)C3)CC2)n2ncc(C(C)C)c2n1 (centres unmarked),,"CTCAE v4.0, refers to: Fatigue",patients with advanced solid tumours,"oral, dose not given, TIW, grade 3 or higher",,patients with TEAE,0%
CCc1cc(C(=O)NC)c2nccc(N3CCc4c(cc(Cn5ccnc5)cc4-c4cn(C)nc4C(F)(F)F)C3=O)c2c1,,,Sprague Dawley rats,"oral, 50 mg/kg once daily, 7 days",baseline: vehicle,serum AST change,1.8%
Cc1nc2ccc(OCc3ccc(C(F)(F)F)cc3)cc2[nH]1,,,"Balb/c mouse, male, liver","intravenous, 1 mg/kg, 3 h",baseline: tissue over plasma,tissue/plasma ratio,12.9 ± 1.5

# Excerpt of the above:
SMILES,tested on,test,system,conditions,scale,measurement,result
Cc1nc2ccc(OCc3ccc(C(F)(F)F)cc3)cc2[nH]1,,,"Balb/c mouse, male, liver","intravenous, 1 mg/kg, 3 h",baseline: tissue over plasma,tissue/plasma ratio,12.9 ± 1.5
C=CCN1CC(=O)N2[C@@H](Cc3ccc(O)cc3F)C(=O)N(Cc3cccc(N4CC(N5CCN(CC)CC5)C4)n3)C[C@@H]2N1C(=O)NCc1ccccc1,,refers to: Diarrhea,advanced solid tumour patients,"oral, 100 mg twice daily, expansion part, any grade",,treatment-related adverse events,22.2%
COc1cc2c(cc1OC)C(=O)C(CC1CCN(Cc3ccccc3)CC1)C2 (centres unmarked),,,human subjects,unit not given,baseline: placebo,LSEQ quality of sleep,7.3
CCc1cc(C(=O)NC)c2nccc(N3CCc4c(cc(Cn5ccnc5)cc4-c4cn(C)nc4C(F)(F)F)C3=O)c2c1,,,Sprague Dawley rats,"oral, 50 mg/kg once daily, 7 days",baseline: vehicle,serum AST change,1.8%
COc1ccc(C[C@@H](C)[C@@H](C)Cc2ccc(OC)c(OC)c2)cc1OC,,,"beagle dog female, plasma","oral, 1000 mg/kg/day, day 28",,AUC(0-t),15700 ± 4880 ng·h/mL
C[C@H]1Oc2cc(cnc2N)-c2c(nn(C)c2C#N)CN(C)C(=O)c2ccc(F)cc21,,population PK,"patients with mild renal impairment, plasma","oral, 100 mg, mean, single dose",,clearance,136 mL/min
